{"data": "Assay results pooled from the literature", "note": "Lines come from different studies, so protocols differ. “And” joins repeats or separate records; there may be more than shown. ± marks the error that the study gave."}
{"SMILES": "CC[C@H](C)[C@H](NC(=O)[C@H](CCCCN)NC(=O)CNC(=O)[C@H](CC(C)C)NC(=O)[C@H](Cc1ccccc1)NC(=O)[C@H](CCCCN)NC(=O)[C@H](CO)NC(=O)[C@H](Cc1ccccc1)NC(=O)[C@H](Cc1c[nH]c2ccccc12)NC(=O)[C@H](CCC(N)=O)NC(=O)[C@@H](NC(=O)[C@H](Cc1ccccc1)NC(=O)CCCCCNC(=O)CN1CCN(CC(=O)O)CCN(CC(=O)O)CCN(CC(=O)O)CC1)C(C)C)C(=O)N[C@@H](CCC(=O)O)C(=O)N1CCC[C@H]1C(=O)N[C@@H](CC(=O)O)C(=O)N[C@H](C(=O)N[C@@H](CO)C(=O)N[C@@H](CCC(N)=O)C(=O)N[C@H](C(=O)N[C@@H](CCC(N)=O)C(=O)N[C@@H](CC(=O)O)C(=O)N1CCC[C@H]1C(=O)N[C@@H](CC(N)=O)C(=O)N[C@@H](CC(=O)O)C(=O)N[C@@H](CCC(N)=O)C(=O)N[C@@H](Cc1ccc(O)cc1)C(=O)N[C@@H](CCC(=O)O)C(=O)N1CCC[C@H]1C(=O)N[C@@H](Cc1ccccc1)C(=O)O)C(C)C)C(C)C [copper-64 labelled]", "test system": "C57BL/6 mice, male, tumour-free, stomach", "setting": "24 h", "quantity": "tissue uptake", "result": "3.27 ± 0.2 %ID/g"}
{"SMILES": "O=C1NC2(CC2)COc2ncc(F)cc2[C@H]2COCCN2c2ccn3ncc1c3n2", "test system": "Sprague-Dawley rat, male, spleen", "setting": "oral, 20 mg/kg/day, 4 weeks, end of treatment", "quantity": "organ-to-body weight ratio", "result": "0.399 ± 0.095%"}
{"SMILES": "O=C(CN1C(=O)C2(CCN(C(=O)c3ccc4[nH]ncc4n3)CC2)c2c(Br)cccc21)NCC(F)(F)F", "test system": "male C57BL/6 mouse, plasma", "setting": "oral, 10 mg/kg", "quantity": "bioavailability", "result": "23.4%"}
{"SMILES": "O=C(CN1CCN(CC(=O)NCP(=O)([O-])[O-])CCN(CC(=O)NCP(=O)([O-])[O-])CCN(CC(=O)NCP(=O)([O-])[O-])CC1)NCP(=O)([O-])[O-].[Gd+3]", "test system": "Sprague-Dawley rats, blood", "setting": "intravenous, 35 µmol/kg, two-compartment model, together with: GdDTPA 68 µmol/kg co-injected", "quantity": "elimination half-life beta", "result": "41.7 min"}
{"SMILES": "CC[C@H](C)[C@H](NC(=O)CNC(=O)[C@H](CCSC)NC(=O)[C@H](CCC(N)=O)NC(=O)[C@H](C)NC(=O)[C@H](CCC(N)=O)NC(=O)[C@@H](NC(=O)[C@H](CC(C)C)NC(=O)[C@H](C)NC(=O)[C@H](CO)NC(=O)[C@H](CCSC)NC(=O)[C@H](CCC(=O)O)NC(=O)[C@H](CC(C)C)NC(=O)[C@H](Cc1ccc(O)cc1)NC(=O)[C@H](CO)NC(=O)[C@H](CCC(=O)O)NC(=O)[C@H](CCC(N)=O)NC(=O)[C@H](CCCNC(=N)N)NC(=O)[C@H](CCCCN)NC(=O)[C@H](CC(=O)O)NC(=O)[C@H](CC(C)C)NC(=O)[C@H](CC(N)=O)NC(=O)[C@H](Cc1ccccc1)NC(=O)[C@H](CCC(=O)O)NC(=O)[C@H](CCCCN)NC(=O)[C@@H](NC(=O)[C@H](CC(C)C)NC(=O)[C@H](CCC(=O)O)NC(=O)[C@H](CCC(=O)O)NC(=O)[C@@H](NC(=O)[C@@H](NC(=O)[C@H](CCCNC(=N)N)NC(=O)[C@H](CCCCN)NC(=O)[C@H](C)NC(=O)[C@H](Cc1ccccc1)NC(=O)[C@H](CCC(=O)O)NC(=O)[C@H](CCC(=O)O)NC(=O)[C@H](CC(C)C)NC(=O)[C@@H](N)CO)C(C)C)C(C)C)C(C)C)[C@@H](C)CC)C(=O)N[C@@H](CO)C(=O)N[C@@H](CCC(=O)O)C(=O)N[C@@H](CCCNC(=N)N)C(=O)N[C@H](C(=O)N[C@H](C(=O)N[C@@H](CCC(=O)O)C(=O)N[C@H](C(=O)N[C@H](C(=O)N[C@@H](CC(C)C)C(=O)N[C@@H](CCCNC(=N)N)C(=O)N[C@@H](Cc1c[nH]cn1)C(=O)N[C@@H](C)C(=O)N[C@@H](C)C(=O)N[C@@H](CCC(N)=O)C(=O)N[C@H](C(=O)N[C@@H](CC(C)C)C(=O)N[C@@H](CCCCN)C(=O)O)[C@@H](C)O)C(C)C)[C@@H](C)CC)[C@@H](C)CC)[C@@H](C)CC", "assay": "LC-MS/MS", "test system": "male ICR (CD-1) mice, plasma", "setting": "intravenous, 1 mg/kg", "quantity": "Tmax", "result": "4.8 min"}
{"SMILES": "O=C(O)c1ccc(-c2nc(-c3ccccc3Cl)c3sccn23)cc1", "test system": "mouse, plasma", "setting": "oral, dose not given, day 4, no 5-FU", "quantity": "plasma concentration", "result": "4.23 ng/mL and 3.98 ng/mL and 4.87 ng/mL"}
{"SMILES": "CCCCCCCCCCCCCCCC(=O)N[C@@H](CCC(=O)NCCOCCOCCC(=O)NCCOCCOCCC(=O)NCCCC[C@H](NC(=O)[C@H](CC(=O)O)NC(=O)[C@H](CC(C)C)NC(=O)[C@H](Cc1ccc(O)cc1)NC(=O)[C@H](CCCCN)NC(=O)[C@H](CO)NC(=O)[C@H](Cc1ccc(O)cc1)NC(=O)[C@H](CC(=O)O)NC(=O)[C@H](CO)NC(=O)[C@@H](NC(=O)[C@H](Cc1ccccc1)NC(=O)[C@@H](NC(=O)CNC(=O)[C@H](CCC(N)=O)NC(=O)[C@@H](CO)NC(=O)[C@@H](N)Cc1c[nH]cn1)[C@@H](C)O)[C@@H](C)O)C(=O)N[C@@H](CCCNC(=N)N)C(=O)N[C@@H](CCCNC(=N)N)C(=O)N[C@@H](C)C(=O)N[C@@H](CCC(N)=O)C(=O)N[C@@H](CC(=O)O)C(=O)N[C@@H](Cc1ccccc1)C(=O)N[C@H](C(=O)N[C@@H](CCC(N)=O)C(=O)N[C@@H](Cc1c[nH]c2ccccc12)C(=O)N[C@@H](CC(C)C)C(=O)N[C@@H](CC(C)C)C(=O)N[C@@H](CC(N)=O)C(=O)N[C@H](C(=O)NCC(=O)NCC(=O)N1CCC[C@H]1C(=O)N[C@@H](CO)C(=O)N[C@@H](CO)C(=O)NCC(=O)N[C@@H](C)C(=O)N1CCC[C@H]1C(=O)N1CCC[C@H]1C(=O)N1CCC[C@H]1C(=O)N[C@@H](CO)C(N)=O)[C@@H](C)O)C(C)C)C(=O)O", "test system": "rhesus monkey, male", "setting": "subcutaneous, 60 µg/kg once daily, 28 days", "quantity": "total bilirubin", "result": "5.4 ± 1.1 µmol/L"}
{"SMILES": "CCc1nn(C)c2nc(-c3ccc(C(=O)O)cc3)nc(NCc3ccccc3)c12", "test system": "NSG mice", "setting": "dose not given, day 15 of treatment", "quantity": "body weight", "result": "22.3 g and 25 g and 23.7 g and 22.7 g"}
{"SMILES": "N=C(N)NCCC[C@@H](NC(=O)[C@H](N)Cc1c[nH]c2ccccc12)C(=O)N[C@H](CCCCN)C(=O)N[C@H](Cc1c[nH]c2ccccc12)C(=O)N[C@H](CCCNC(=N)N)C(=O)N[C@H](CCCCN)C(=O)N[C@H](Cc1c[nH]c2ccccc12)C(=O)N[C@H](CCCNC(=N)N)C(=O)N[C@H](CCCCN)C(=O)N[C@H](Cc1c[nH]c2ccccc12)C(=O)N[C@H](CCCNC(=N)N)C(=O)N[C@H](CCCCN)C(N)=O", "test system": "mouse, liver", "setting": "intravenous, 20 mg/kg single dose, 7 days", "quantity": "organ index", "result": 4.92}
{"SMILES": "CSCC[C@H](N)C(=O)N[C@@H](C)C(=O)N[C@@H](Cc1c[nH]c2ccccc12)C(=O)N[C@@H](Cc1c[nH]cn1)C(=O)N[C@@H](CC(=O)O)C(=O)N[C@@H](CC(=O)O)C(=O)N[C@@H](CCC(=O)O)C(=O)N[C@@H](CCC(=O)O)C(=O)N[C@@H](Cc1ccccc1)C(=O)N[C@@H](C)C(=O)N[C@@H](CCCNC(=N)N)C(=O)N[C@@H](CCCNC(=N)N)C(=O)N[C@@H](CCCNC(=N)N)C(=O)N[C@@H](CCCNC(=N)N)C(=O)NCCCCCC(=O)NCCCCC(NC(=O)CCCCCNC(=O)[C@H](CCCNC(=N)N)NC(=O)[C@H](CCCNC(=N)N)NC(=O)[C@H](CCCNC(=N)N)NC(=O)[C@H](CCCNC(=N)N)NC(=O)[C@H](C)NC(=O)[C@H](Cc1ccccc1)NC(=O)[C@H](CCC(=O)O)NC(=O)[C@H](CCC(=O)O)NC(=O)[C@H](CC(=O)O)NC(=O)[C@H](CC(=O)O)NC(=O)[C@H](Cc1c[nH]cn1)NC(=O)[C@H](Cc1c[nH]c2ccccc12)NC(=O)[C@H](C)NC(=O)[C@@H](N)CCSC)C(=O)NCCCCC(NC(=O)C(CCCCNC(=O)CCCCCNC(=O)[C@H](CCCNC(=N)N)NC(=O)[C@H](CCCNC(=N)N)NC(=O)[C@H](CCCNC(=N)N)NC(=O)[C@H](CCCNC(=N)N)NC(=O)[C@H](C)NC(=O)[C@H](Cc1ccccc1)NC(=O)[C@H](CCC(=O)O)NC(=O)[C@H](CCC(=O)O)NC(=O)[C@H](CC(=O)O)NC(=O)[C@H](CC(=O)O)NC(=O)[C@H](Cc1c[nH]cn1)NC(=O)[C@H](Cc1c[nH]c2ccccc12)NC(=O)[C@H](C)NC(=O)[C@@H](N)CCSC)NC(=O)CCCCCNC(=O)[C@H](CCCNC(=N)N)NC(=O)[C@H](CCCNC(=N)N)NC(=O)[C@H](CCCNC(=N)N)NC(=O)[C@H](CCCNC(=N)N)NC(=O)[C@H](C)NC(=O)[C@H](Cc1ccccc1)NC(=O)[C@H](CCC(=O)O)NC(=O)[C@H](CCC(=O)O)NC(=O)[C@H](CC(=O)O)NC(=O)[C@H](CC(=O)O)NC(=O)[C@H](Cc1c[nH]cn1)NC(=O)[C@H](Cc1c[nH]c2ccccc12)NC(=O)[C@H](C)NC(=O)[C@@H](N)CCSC)C(N)=O (stereo partly drawn)", "test system": "C57BL/6 mouse female, skull", "setting": "dose not given, 6 h", "how to read": "relative to: total", "quantity": "mean tissue distribution", "result": "26.3%"}
{"SMILES": "CC(C)[C@H](NC(=O)[C@H](Cc1c[nH]c2ccccc12)NC(=O)[C@H](CCCNC(=N)N)NC(=O)[C@H](CCCNC(=N)N)NC(=O)[C@@H](NC(=O)[C@@H](NC(=O)[C@H](CCCNC(=N)N)NC(=O)[C@@H](NC(=O)[C@@H](NC(=O)[C@H](CCCNC(=N)N)NC(=O)[C@H](CCCNC(=N)N)NC(=O)[C@@H](NC(=O)[C@H](Cc1c[nH]c2ccccc12)NC(=O)[C@H](CCCNC(=N)N)NC(=O)[C@H](CCCNC(=N)N)NC(=O)[C@@H](NC(=O)[C@H](CCCNC(=N)N)NC(=O)[C@H](CCCNC(=N)N)NC(=O)[C@@H](NC(=O)[C@H](Cc1c[nH]c2ccccc12)NC(=O)[C@H](CCCNC(=N)N)NC(=O)[C@@H](N)CCCNC(=N)N)C(C)C)C(C)C)C(C)C)C(C)C)C(C)C)C(C)C)C(C)C)C(=O)N[C@@H](CCCNC(=N)N)C(=O)N[C@@H](CCCNC(=N)N)C(=O)O", "test system": "Swiss Webster mice", "setting": "intravenous, dose not given, single dose", "how to read": "relative to: vehicle", "quantity": "liver, kidney, spleen weights", "result": "no effect"}
{"SMILES": "COc1cnc2cccc(N3CCc4c(cc(Cn5ccnc5)cc4-c4cn(C)nc4C(F)(F)F)C3=O)c2c1", "test system": "CD-1 mice", "setting": "intraperitoneal, 150 mg/kg once daily, day 4", "quantity": "body weight", "result": "29.9 ± 1.2 g"}
{"note": "For quick reference, copied from above:"}
{"SMILES": "O=C(CN1C(=O)C2(CCN(C(=O)c3ccc4[nH]ncc4n3)CC2)c2c(Br)cccc21)NCC(F)(F)F", "test system": "male C57BL/6 mouse, plasma", "setting": "oral, 10 mg/kg", "quantity": "bioavailability", "result": "23.4%"}
